Assay results collected from several papers.
A part holds a random share of what one study measured. Positions count from the first letter of the parent shown.

Block 1 — target: CCND1, cyclin fold, Cln2 fusion (human); method: yeast growth competition, sequencing; medium: yeast; notes: weak parent motif; baseline: not given; direction: higher = stronger binding
Starting sequence: ORC1 docking peptide (human); PRARKRLELGNLG; partner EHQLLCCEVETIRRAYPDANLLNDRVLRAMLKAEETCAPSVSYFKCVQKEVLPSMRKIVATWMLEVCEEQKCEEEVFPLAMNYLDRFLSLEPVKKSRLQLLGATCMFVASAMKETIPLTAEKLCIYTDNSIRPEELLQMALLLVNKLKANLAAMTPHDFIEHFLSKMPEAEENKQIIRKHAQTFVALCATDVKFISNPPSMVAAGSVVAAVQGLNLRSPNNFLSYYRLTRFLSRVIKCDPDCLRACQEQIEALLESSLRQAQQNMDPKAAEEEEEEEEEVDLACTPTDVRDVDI
Change	normalised enrichment score
R2F	-0.288
P1G	-0.863
P1W	0.397
E8N	-0.358
G13R	-0.231
L12W	0.629
E8V	0.373
R2C	-0.101
G13A	-0.474
A3N	0.244
L9N	-0.088

Block 2 — method: RNA Bind-n-Seq; molecule type: RNA; medium: in vitro; concentration: not given; notes: RNA with constant flanks, ends assumed; baseline: input RNA pool; direction: higher = stronger binding
Target: RING finger protein unkempt homolog, zinc fingers 1-6, GST-SBP tag (UNK, Homo sapiens, UniProt Q9C0B0, residues 30-357)
Target sequence (chain): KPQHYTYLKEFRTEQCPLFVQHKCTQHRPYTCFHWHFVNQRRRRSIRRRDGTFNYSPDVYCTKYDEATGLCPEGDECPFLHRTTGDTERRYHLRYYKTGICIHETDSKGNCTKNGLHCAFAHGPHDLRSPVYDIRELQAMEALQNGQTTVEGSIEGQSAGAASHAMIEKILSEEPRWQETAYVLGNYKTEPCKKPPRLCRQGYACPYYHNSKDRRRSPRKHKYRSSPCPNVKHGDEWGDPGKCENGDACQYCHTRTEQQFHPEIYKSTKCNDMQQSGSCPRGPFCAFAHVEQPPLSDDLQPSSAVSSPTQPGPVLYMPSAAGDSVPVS
Oligonucleotide	bound/input enrichment [ratio]
GGGAGUUCUACAGUCCGACGAUCGGUGCAAAAAGGCAGAAGGCCAGGUUGACAGUGUUUUGUCUUGUCCCUCCGUGUUUUCCCGAAUGUUUUACACCUGGCUGGUGAAUCUGCUGAGACCAGGUUUUCUGAGACUUGAUUAAACAACAGAGGAUUGAGCAUCA	0.105
GGGAGUUCUACAGUCCGACGAUCUGUUAUAUCACACCAAAGAGACCUCGAUCUUCUGCUAAAGAGUCACAUUACAAAUCUGCUGUCCGCAAGGACUUUCUCACUGAAGGAAAGGCAUCUGAUAGAACUAGCAGACAGCUGUUACAACAGAGGAUUGAGCAUCA	0.205
GGGAGUUCUACAGUCCGACGAUCAAGUAGCAUAUGACUGGAAACUAUAUUCAGUGCACUUUCUCCAAAAGACUACCCAGAAAAACCGACUUAUUUUCAAAUACCAGUUAUCAAGAUAUAUUAAAUAGCUGUAUUGUUUAGAAUCAACAGAGGAUUGAGCAUCA	1.18
GGGAGUUCUACAGUCCGACGAUCAGUAUCUACCUGCUGUCACGGCACUGUCCCUGUCAACUUUGUGUAGGGACGUGUGAGGGAUACCGGGUCCCUCUGACACCUGCACACUGUCCAGGUGGUGAGCCAUCUGCUUCAGCACGUCAACAGAGGAUUGAGCAUCA	0.0975

Block 3 — target: UBE2J2 UBC core domain (UniProt Q8N2K1); method: yeast two-hybrid; medium: yeast; notes: mostly zero background; baseline: not given; direction: higher = stronger interaction
UniProt Q8N2K1, sequence (whole entry, looked up): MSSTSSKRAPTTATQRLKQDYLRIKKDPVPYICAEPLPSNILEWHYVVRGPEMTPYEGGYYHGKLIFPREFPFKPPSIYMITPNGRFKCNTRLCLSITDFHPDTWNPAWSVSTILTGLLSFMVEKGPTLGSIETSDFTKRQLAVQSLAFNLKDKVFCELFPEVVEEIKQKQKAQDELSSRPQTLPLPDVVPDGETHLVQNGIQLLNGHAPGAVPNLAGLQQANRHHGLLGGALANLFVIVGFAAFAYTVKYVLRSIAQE
B1: MDM4 RING domain (UniProt O15151); chain MEDCQNLLKPCSLCEKRPRDGNIIHGRTGHLVTCFHCARRLKKAGASCPICKKEIQLVIKVF
B2: RBCK1 RING domain (UniProt Q9BYM8); chain SLVLNTEPAECPVCYSVLAPGEAVVLRECLHTFCRECLQGTIRNSQEAEVSCPFIDNTYSCSGKLLEREIK
B3: UBOX5 RING domain (UniProt O94941); chain EQPGSILGPECASCKRVFSPYFKKEPVYQLPCGHLLCRPCLGEKQRSLPMTCTACQRPVASQDVLR
B4: RNF19A RING domain (UniProt Q9NV58); chain ISKQIGDFIECPLCLLRHSKDRFPDIMTCHHRSCVDCLRQYLRIEISESRVNISCPECTERFNPHDIR
Molecule	lacZ reporter activity
KLRKLKEAMLCMVCCEEEINSTFCPCGHTVCCESCAAQLQSCPVCRSRVEHVQHVY (MYLIP RING domain (UniProt Q8WY64))	3020
FDGDVDPDLKCALCHKVLEDPLTTPCGHVFCAGCVLPWVVQEGSCPARCRGRLSAKELN (PDZRN3 RING domain (UniProt Q9UPQ7))	0
B1 (MDM4 RING domain)	0
KETIKKTTKPCPRCHVPVEKNGGCMHMKCPQPQCRLEWCWNCGCEWNRVCMG (PRKN RING domain (UniProt O60260))	0
B2 (RBCK1 RING domain)	0
B3 (UBOX5 RING domain)	0
NLSELTPYILCSICKGYLIDATTITECLHTFCKSCIVRHFYYSNRCPKCNIVVHQTQPLY (PCGF6 RING domain (UniProt Q9BYE7))	0
B4 (RNF19A RING domain)	0
AMYLQENGIDCPKCKFSYALARGGCMHFHCTQCRHQFCSGCYNAFYAKNKC (RNF31 RING domain (UniProt Q96EP0))	0

Block 4 — method: competition protein-binding microarray; molecule type: double-stranded DNA, one strand shown; medium: in vitro; concentration: 2 µM; with: Cbf1 competitor, 0.05 µM; direction: higher = stronger binding
Target: Phosphate system positive regulatory protein PHO4, full length, GST-tagged (PHO4, Saccharomyces cerevisiae, UniProt P07270, residues 1-312)
Notes: whole 60-bp probe, lowest competitor level
Residues (chain): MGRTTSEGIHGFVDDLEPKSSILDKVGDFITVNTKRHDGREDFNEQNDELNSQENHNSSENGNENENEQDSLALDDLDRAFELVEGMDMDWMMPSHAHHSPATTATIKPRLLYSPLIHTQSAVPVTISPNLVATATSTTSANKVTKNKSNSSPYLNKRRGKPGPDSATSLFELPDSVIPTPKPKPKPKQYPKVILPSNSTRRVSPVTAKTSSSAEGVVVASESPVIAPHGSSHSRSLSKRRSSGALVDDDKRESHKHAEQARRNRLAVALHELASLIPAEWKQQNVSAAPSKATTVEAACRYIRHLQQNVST
Oligonucleotide	fluorescence intensity
AAATAAAGCCTAAAGCGCGTGGTGAGTACGAAAAAAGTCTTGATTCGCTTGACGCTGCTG	9400 a.u.
CATACCCAACCTTGTCACAAGACTTAAGATATTTGTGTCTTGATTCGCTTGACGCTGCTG	4170 a.u.
TGCTGAAACAACTGGCACGCAAGGTTTTTTAGCAGCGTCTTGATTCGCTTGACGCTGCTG	6000 a.u.
TCCGCACACAGAGGTTATGTGACGGTGGTAACCGTAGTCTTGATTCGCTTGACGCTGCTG	4750 a.u.
AAATTACTAAGTTGTTCCGTGGGTGACGCCGTATGAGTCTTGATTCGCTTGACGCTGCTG	5060 a.u.
GTAGAGGTTAACGGTTCCGTGATGGAACCCATTTCTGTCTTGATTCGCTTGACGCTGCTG	2960 a.u.
AAAGCGGTAATTTGTCACGTCACTTCACATATCTATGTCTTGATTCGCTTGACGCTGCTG	4390 a.u.
GTCTCCATCTTCTTCCACGGGGGCTAGAACACCATCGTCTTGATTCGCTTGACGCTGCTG	8080 a.u.
CTTTCCCGATCTTGTCACTTCACTTTAGCACATTTGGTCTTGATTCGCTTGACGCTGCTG	4040 a.u.
CTTTCCCGATCTTCACACGTGTTTTTAGCACATTTGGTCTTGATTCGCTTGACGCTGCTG	17100 a.u.
AGGTCCGCTGGAAAGCACGATCTCCGACGTAGTGGAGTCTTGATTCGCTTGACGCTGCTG	7050 a.u.
CTCCTCCGCGCTTTCCTCGTGCGCCTGCAGCCCTTGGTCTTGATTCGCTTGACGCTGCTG	11100 a.u.
CATACCCAACCTTGCAAGGTGGGTGAAGATATTTGTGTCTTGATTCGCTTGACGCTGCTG	3880 a.u.
CAGGCTGGTGCGCAGCACATGGCCGGGCTCCGGGTGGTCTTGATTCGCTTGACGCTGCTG	10300 a.u.
TCGCAGATGCCATATCCCGTGCCGAATATACTATAAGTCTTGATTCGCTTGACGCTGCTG	9630 a.u.

For quick reference, copied from above (block 1):
Change	normalised enrichment score
P1W	0.397
E8N	-0.358
G13R	-0.231
L12W	0.629
E8V	0.373
R2C	-0.101
